Published values pooled from the literature.
Parts stem from different laboratories: compare values within a part only.

Set 1
Target: RNA binding protein fox-1 homolog 2, RRM domain, GST-SBP tag (RBFOX2, Homo sapiens, UniProt O43251-10, residues 100-194)
Technique: RNA Bind-n-Seq
Molecule type: RNA
Medium: in vitro
Tested at: 365 nM
Notes: natural RNA segment, single round, ends assumed
Baseline: no-protein control
Direction: higher = stronger binding
Endpoint: RBNS enrichment (R)
Residues (chain): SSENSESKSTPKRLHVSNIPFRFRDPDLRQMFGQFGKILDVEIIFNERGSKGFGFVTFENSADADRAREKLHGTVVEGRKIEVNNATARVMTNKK
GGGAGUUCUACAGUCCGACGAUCUGCUUUCCCUCGCAAGCCCUUCUAUAGCUCCCAGCCCACGGGAGAGGCCAUGAGGAGCGCGAGGUCGCCAGCAGCCCCACUGGGCCUCCCACACCAUCUGAGUGACUUGAUGGAAUUCUCGGGUGCCAA: 0.332
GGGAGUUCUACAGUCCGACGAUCAGUAAAGCCUUCAUAGCGAGUGGAUGGGAUGAGGUGUGGCACACAUCCCCGGGAGUGCUCGUGGGAAGUGGCCUCCACAGAAGGUAGUCAUCUUCAUCCUCUAGGACAUUUGGAAUUCUCGGGUGCCAA: 0.374
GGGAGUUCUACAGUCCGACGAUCUGUUUCUUUCUUUUUCAUUUUGUGAAAAACUCCAUGUUAGUCCUCUUAGAUGACUGCUUAUUUAUGUGUAACAUAAAUCCCACAUAUUCUAAUGACAACUUCUUUAAUCCUGGAAUUCUCGGGUGCCAA: 0.339
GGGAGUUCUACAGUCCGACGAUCCAGAGUCAGAACUGUACACAUCCCAAAAUUUGGUGGCCGUGGAACACAUUCCCGGUGAUAGAAUUGCUAAAUUGUCGUGAAAUAGGUUAGAAUUUUUCUUUAAAUUAUGGUGGAAUUCUCGGGUGCCAA: 0.67
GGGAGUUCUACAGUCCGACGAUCCUCUUCUUGCAGCUGCCUGGCCAGGAUCUAUGGCUUAGGAUCUAUGGCCACCCCUGCAGGGGAGCUACAGUGAGGCCUGGGGCUGGAUUCCACCCACAGUCCCUUCCCUGUGGAAUUCUCGGGUGCCAA: 0.38
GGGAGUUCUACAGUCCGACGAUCCAUGCCUUCCCUGCUGGAUCAUUAUAUACAUUCAGAUUGUGAGUGGAUUGCCUUGGUUGACUUUUAAUUUAUUGUUUUUUGUUCUUAUAAAGAUGAUAAUCUUACCUUGCUGGAAUUCUCGGGUGCCAA: 0.783
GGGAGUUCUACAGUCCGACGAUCCUGUGGGUACUGGUCUUGGGUUCUAGUCAUAAGGGGUUCCUUAUAAGGAGCAGGCGGAGGGGAGUACACUUUCAUGUGAUUUAAUUUUGAUCCUGCCCUCUCCAGCUGCUUGGAAUUCUCGGGUGCCAA: 0.282
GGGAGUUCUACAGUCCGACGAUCCAGUGGGGAUUUCUUAGAACAGGAGAGAGGAAUCCAUGAAGCAGGAGAAGCAGUGCCUGCCAGCUGUGGUGGACCUUCCUAAGAAAUAAAUAUCCUUUAUGUUUUCAAACUGGAAUUCUCGGGUGCCAA: 0.979
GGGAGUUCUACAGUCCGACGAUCCAAGAAUGUGGGAGUAUGUCUGCCGGUUUCAACACACACAGACAAACACAGCCACACGCGCACACAAGUAUAAGACUUUUUGUAUUACUGCUCCCUACUUAACAUACUUGUGGAAUUCUCGGGUGCCAA: 0.27
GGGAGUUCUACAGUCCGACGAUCCUCUGUCCAGCCACAAGUUUGAGCAGAGGAUGUGGGGACCUCCCACAGGACACUGCUCCAACCCAAAUCAAUGUCCUCUCUAGCUGUGCAUCCCAAACCCACCUCUUGUCUGGAAUUCUCGGGUGCCAA: 0.452
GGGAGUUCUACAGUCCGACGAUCAACAGUUCAUUGCUUUGGAAUGGCCGUGAAAGAGAUCUAACUGUGGAUGCUUACUGAGGCUUGUAUGUAGUGUUGGUUACUGGGGAAGUGUUUGGCCUCCUUGGACUGUGUGGAAUUCUCGGGUGCCAA: 2.16
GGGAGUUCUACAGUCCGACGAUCCGGUUUUUGUAUAUAAAAUUCAUGUUUCCAAUCUCUCUCUCCCUGAUCGGUGACAGUCACUAGCUUAUCUUGAACAGAUAUUUAAUUUUGCUAACACUCAGCUCUGCCCUUGGAAUUCUCGGGUGCCAA: 0.53

Set 2
Target: Prothrombin, mature alpha-thrombin (F2, Homo sapiens, UniProt P00734)
Technique: aptamer microarray, sandwich
Molecule type: DNA with 2'F-ANA
Medium: in vitro
Tested at: 200 nM
Notes: whole 15-mer aptamer, many near background
Together with: Cy3 exosite-II aptamer, 400 nM
Direction: higher = stronger binding
Endpoint: mean fluorescence intensity
Strand: GGTTGGTGTGGTTGG
2'F-ANA at 2 3 4 7 8 11 12 13 14: 393 a.u.
2'F-ANA at 2 3 4 6 11 12: 657 a.u.
2'F-ANA at 2 4 5 6 10 13 14: 45.2 a.u.
2'F-ANA at 3 7 8 10 11 12 13 15: 613 a.u.
2'F-ANA at 2 4 5 7 13 15: 54.5 a.u.
2'F-ANA at 1 2 3 4 5 12 14 15: 50.4 a.u.
2'F-ANA at 1 4 7 8 9 10 11 12 13: 54.6 a.u.
2'F-ANA at 3 8 10 15: 586 a.u.
2'F-ANA at 1 2 5 6 8 10 11 12 15: 53.4 a.u.
2'F-ANA at 2 4 7 8 9 10 11 12 15: 115 a.u.
2'F-ANA at 1 2 4 6 7 12 13 14: 55.6 a.u.
2'F-ANA at 1 2 3 5 6 7 11 12 13 14 15: 70.2 a.u.
2'F-ANA at 4 5 6 8 9 10 14: 43.9 a.u.
2'F-ANA at 1 4 5 6 9 10 12 13 14: 58.6 a.u.
2'F-ANA at 2 5 6 7 9 13 15: 51 a.u.
2'F-ANA at 3 4 8 11 13 14 15: 381 a.u.
2'F-ANA at 1 2 3 7 9 10 12 14 15: 48.8 a.u.
2'F-ANA at 3 6 9 10 11 12 14 15: 321 a.u.
2'F-ANA at 1 2 3 4 5 6 7 10 12 14 15: 51.8 a.u.
2'F-ANA at 1 7 8 9 10 13 14: 45.7 a.u.
2'F-ANA at 1 2 6 8 9 10 11 12 14 15: 68.7 a.u.
2'F-ANA at 1 2 3 13 14 15: 67.2 a.u.
2'F-ANA at 2 3 4 5 6 7 8 11 12 14: 77.6 a.u.
2'F-ANA at 2 4 6 7 8 10 11: 75.7 a.u.
2'F-ANA at 2 3 7 10 12 13: 483 a.u.

Set 3
Target: Histone acetyltransferase KAT6A, both winged helices, GST fusion (KAT6A, Homo sapiens, UniProt Q92794, residues 1-181)
Technique: protein binding microarray
Molecule type: double-stranded DNA, one strand shown
Medium: in vitro
Tested at: not given
Notes: 8-mer, flanks averaged, mean of 2 arrays, mostly near background
Baseline: not given
Direction: higher = stronger binding
Endpoint: E-score
Residues (chain): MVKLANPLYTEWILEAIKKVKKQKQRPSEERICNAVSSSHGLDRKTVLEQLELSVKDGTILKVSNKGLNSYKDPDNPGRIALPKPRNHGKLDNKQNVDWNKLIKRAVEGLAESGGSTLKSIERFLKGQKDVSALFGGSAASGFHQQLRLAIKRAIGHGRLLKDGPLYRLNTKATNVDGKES
CAACAATA: -0.0739
CGTTACGA: 0.0786
CCGTGGTA: 0.0697
CGCTATGC: 0.286
CAGACTCA: -0.0607
AAACAGGG: -0.179
ATGGAGCA: -0.05
CGGTCCAA: 0.019
AGGTATTC: -0.0774
CCAGTGAC: -0.156
CGAATGAA: 0.06
AAGCTTCT: -0.0637
AGTCGCAT: 0.123
AGTTCGTG: -0.101
CCGTTTTA: 0.137
CCATCTAA: -0.0967
AACGTGAC: 0.0134
AGTGGAAG: -0.121
CAGAATAA: -0.0811
GATGGTAA: -0.0964
ACTCCAAT: -0.104
TACCGGAA: 0.12
AAAAACGT: 0.0288
ATCCTGCC: -0.0129
AGAGATTC: -0.133

Set 4
Target: RING finger protein unkempt homolog, zinc fingers 1-6, GST-SBP tag (UNK, Homo sapiens, UniProt Q9C0B0, residues 30-357)
Sequence of UniProt Q9C0B0 (30-357, looked up): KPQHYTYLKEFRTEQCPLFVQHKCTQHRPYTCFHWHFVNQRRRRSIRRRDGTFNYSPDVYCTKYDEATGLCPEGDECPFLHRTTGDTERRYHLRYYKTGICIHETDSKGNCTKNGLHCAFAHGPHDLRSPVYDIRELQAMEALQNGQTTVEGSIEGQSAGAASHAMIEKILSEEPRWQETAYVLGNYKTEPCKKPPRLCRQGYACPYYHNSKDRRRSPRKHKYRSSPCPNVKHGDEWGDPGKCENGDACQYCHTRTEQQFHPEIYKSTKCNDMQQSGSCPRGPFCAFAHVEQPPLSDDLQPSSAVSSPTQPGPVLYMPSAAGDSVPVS
Technique: RNA Bind-n-Seq
Molecule type: RNA
Medium: in vitro
Tested at: not given
Notes: RNA with constant flanks, human and mouse sites, ends assumed
Baseline: input RNA pool
Direction: higher = stronger binding
Endpoint: bound/input enrichment
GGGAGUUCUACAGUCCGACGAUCGAGUGCCUGAGCAACAUCCGCGAGUUCCUGCGCGGCUGCGGGGCUUCCCUGCGGCUGGAGACGUUUGAUGCAAAUGAUUUGUAUCAGGGGCAGAAUUUUAACAAGGUCCUCAGUUCCUUACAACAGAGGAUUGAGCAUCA: 0.138 ratio
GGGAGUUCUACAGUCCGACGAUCGAGCUCUUCCCUGCUCGCUCACGCCUGCUCUCAGAAGCUCCGAUCCAGACACACGCGAGGCGCUGUCCUUUCAGCACCACAAGCUCGGGCUGAGGAGGGAGGACUCCUGGCCGUCCUCCUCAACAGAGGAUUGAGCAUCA: 0.112 ratio
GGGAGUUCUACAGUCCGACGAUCGUUGGCUGGCUCCGAUCAAAGAAGGCUGUUGACUGGCGACUGUUUCGAAACAUUUUUAUGGCCUGGUUUGUCACGGUCCCCAUCUCUGGGGUUAUCAGUGCCGCUAUCAUGGCAGUAUUCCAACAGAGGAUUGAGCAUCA: 0.262 ratio
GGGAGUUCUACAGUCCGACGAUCGUCCCCGCAGCCUAUGGCCCAGGCCGCCUUGGGUAUUUCUGCUCAAGGUAACCACAUCCCUCUUUAAAAAUUCCGCCGAAAAAGAGAAGACGCUUUACCCGACUCUUUGGGCCGUUAUCUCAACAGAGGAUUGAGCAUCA: 0.281 ratio
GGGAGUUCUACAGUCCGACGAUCGUACUUGCUGUAGGAUUCAAGCUGUCUUUGCACUAGCUCUAAAGAAGAUUUUCUUCUGGUUUUAGAGAACUAAUUUUGUUUUAGCAUUAAACUGUUGAACUUUUUUUUGUACUUAGAAAACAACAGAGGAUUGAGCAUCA: 2.57 ratio
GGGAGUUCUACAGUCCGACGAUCUAUCAGUCUCUCCUUAUCAGAGGAGAGACCUUUUAUUUUUAAGAUGACUACAGACCUAUUUUUAGAUAAGUUUUCAGUACAAUUUUGAACUACAACUUUUUUAACAAAACAUCUUCCAGUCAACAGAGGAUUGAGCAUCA: 0.261 ratio
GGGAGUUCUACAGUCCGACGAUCAAGGGGGAGGUCGCCCCCAAGGAGACCCCCAAGAAGAAGAAGAAAUUCUCUUUCAAGAAGCCUUUCAAAUUGAGUGGCCUGUCCUUCAAGAGAAAUCGGAAGGAGGGUGGGGGUGAUUCCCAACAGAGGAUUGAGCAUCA: 0.195 ratio
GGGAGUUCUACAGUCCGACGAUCGACAACUCUGUCCCUACGACCGGGUCGUUAAGCGCCGUUGCAGCCAUGGCUACUGCUCUAGGAUUUCGCUGCCUUUUCCGAACGCGACCUGCGCCGCUCUGUCGGCACGUCGACCGGCUGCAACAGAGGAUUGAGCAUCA: 0.137 ratio
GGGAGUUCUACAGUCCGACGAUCAGGUGGCUGCCGCGGCCGCCGAGGAGUCCCUUGCUGAAGGCGGACCGCGGAGCGGCGGGCGGCGCGCGCGCGCCCGAGCGACGGCUGUUGGAGAAGUGGAGCGGCGGCGGUGGAGGAGGGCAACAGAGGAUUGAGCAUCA: 0.661 ratio
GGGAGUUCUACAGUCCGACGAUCGUUCUGGAUAAUUCUGGCUUUGAACUGAUUACGGAUUUAGUAUUGGCGGACUUUUUAUUUUCCUCGGAGUUAGCUACUGAGAUUCAUUUCCAUGGGAAAAGCAUCCCAUGGUUUGUGUCUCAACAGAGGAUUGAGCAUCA: 0.253 ratio
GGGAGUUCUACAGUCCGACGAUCUUUUUACUUGGAAAUAACUGCACAUUUAUAUAUAGGAUAUUGGACUCUGCUUAGCAUUUUCAAGCCACAUAGCAUGACUGUUUUUUGAAUAGGUUGGAAUUGAAAAAACAAUUAUCAAACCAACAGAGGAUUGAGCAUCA: 6.95 ratio

For quick reference, copied from above (set 2):
2'F-ANA at 1 4 7 8 9 10 11 12 13: 54.6 a.u.
2'F-ANA at 3 4 8 11 13 14 15: 381 a.u.
2'F-ANA at 1 2 3 7 9 10 12 14 15: 48.8 a.u.
2'F-ANA at 2 3 4 5 6 7 8 11 12 14: 77.6 a.u.
2'F-ANA at 1 2 5 6 8 10 11 12 15: 53.4 a.u.
